{"data": "Measurements from different studies", "note": "Each line is one published result; not all experiments were run side by side. “And” joins repeats or separate records; there may be more than shown. Numbers after ± are the reported error.", "UniProt Q14289, sequence (whole entry, looked up)": "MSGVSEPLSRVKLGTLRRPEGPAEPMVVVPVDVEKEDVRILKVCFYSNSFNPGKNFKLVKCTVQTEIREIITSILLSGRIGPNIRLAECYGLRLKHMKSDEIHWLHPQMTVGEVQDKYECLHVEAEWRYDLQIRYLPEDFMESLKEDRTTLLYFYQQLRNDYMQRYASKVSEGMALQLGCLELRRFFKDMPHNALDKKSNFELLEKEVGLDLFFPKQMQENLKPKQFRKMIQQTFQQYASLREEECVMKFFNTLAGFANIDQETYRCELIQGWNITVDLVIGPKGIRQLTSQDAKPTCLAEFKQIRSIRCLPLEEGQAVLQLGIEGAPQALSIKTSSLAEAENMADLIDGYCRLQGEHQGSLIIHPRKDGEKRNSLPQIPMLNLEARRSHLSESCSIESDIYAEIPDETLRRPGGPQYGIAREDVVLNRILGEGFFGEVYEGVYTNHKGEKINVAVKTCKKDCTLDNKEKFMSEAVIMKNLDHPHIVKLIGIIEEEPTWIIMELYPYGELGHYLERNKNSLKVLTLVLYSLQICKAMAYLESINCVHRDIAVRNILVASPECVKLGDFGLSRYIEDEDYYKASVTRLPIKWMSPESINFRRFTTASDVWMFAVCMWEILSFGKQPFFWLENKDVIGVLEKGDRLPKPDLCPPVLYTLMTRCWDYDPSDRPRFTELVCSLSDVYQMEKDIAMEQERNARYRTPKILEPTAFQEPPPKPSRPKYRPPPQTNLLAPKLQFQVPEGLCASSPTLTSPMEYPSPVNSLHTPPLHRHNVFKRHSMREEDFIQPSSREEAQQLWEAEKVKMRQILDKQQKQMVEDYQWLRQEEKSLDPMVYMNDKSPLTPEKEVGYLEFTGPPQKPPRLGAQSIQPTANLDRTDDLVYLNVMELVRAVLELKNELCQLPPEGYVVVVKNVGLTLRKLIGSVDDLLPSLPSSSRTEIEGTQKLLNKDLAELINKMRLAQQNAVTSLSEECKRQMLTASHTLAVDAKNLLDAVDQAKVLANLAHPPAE", "UniProt Q08345, sequence (whole entry, looked up)": "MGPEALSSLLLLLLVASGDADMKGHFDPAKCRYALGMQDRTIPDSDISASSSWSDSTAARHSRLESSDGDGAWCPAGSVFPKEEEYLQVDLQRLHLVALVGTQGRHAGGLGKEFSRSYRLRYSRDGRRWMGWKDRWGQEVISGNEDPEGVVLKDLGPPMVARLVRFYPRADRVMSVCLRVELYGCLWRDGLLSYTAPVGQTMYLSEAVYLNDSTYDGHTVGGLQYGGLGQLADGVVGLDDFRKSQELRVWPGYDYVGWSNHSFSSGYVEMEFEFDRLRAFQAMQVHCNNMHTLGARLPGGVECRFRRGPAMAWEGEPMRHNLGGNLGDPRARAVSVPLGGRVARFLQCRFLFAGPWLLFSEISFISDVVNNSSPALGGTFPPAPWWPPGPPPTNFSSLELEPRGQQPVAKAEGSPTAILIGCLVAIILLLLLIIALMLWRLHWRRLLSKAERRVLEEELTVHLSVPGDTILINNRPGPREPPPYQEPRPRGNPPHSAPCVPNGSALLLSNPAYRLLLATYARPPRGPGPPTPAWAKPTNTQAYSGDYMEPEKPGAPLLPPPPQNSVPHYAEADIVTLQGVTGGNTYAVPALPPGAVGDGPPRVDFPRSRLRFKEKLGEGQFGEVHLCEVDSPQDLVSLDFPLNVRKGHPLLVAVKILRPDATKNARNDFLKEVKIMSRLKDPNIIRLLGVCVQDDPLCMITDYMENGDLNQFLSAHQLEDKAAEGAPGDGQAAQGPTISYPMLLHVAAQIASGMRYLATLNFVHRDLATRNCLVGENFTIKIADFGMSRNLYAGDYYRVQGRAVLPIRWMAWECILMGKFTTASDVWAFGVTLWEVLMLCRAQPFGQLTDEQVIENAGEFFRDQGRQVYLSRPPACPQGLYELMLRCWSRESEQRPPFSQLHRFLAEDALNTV", "UniProt P49760, sequence (whole entry, looked up)": "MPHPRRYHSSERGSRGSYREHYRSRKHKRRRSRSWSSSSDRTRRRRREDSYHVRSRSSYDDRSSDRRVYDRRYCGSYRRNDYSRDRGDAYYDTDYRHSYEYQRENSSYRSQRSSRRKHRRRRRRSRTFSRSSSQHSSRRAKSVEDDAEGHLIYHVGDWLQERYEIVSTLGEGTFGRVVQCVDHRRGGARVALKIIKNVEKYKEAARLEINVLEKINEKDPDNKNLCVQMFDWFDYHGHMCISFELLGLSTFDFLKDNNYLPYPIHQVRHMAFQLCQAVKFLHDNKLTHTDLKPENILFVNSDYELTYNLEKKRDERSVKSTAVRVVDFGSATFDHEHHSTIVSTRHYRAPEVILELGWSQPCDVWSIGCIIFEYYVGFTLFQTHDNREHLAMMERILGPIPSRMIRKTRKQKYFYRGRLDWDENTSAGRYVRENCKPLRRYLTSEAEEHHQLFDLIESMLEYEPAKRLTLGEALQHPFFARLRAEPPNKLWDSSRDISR"}
{"Compound": "CCCCC[C@@H]1NC(=O)[C@@H](C)N(C)C(=O)[C@H](CCCCC)NC(=O)[C@@H](C)N(C)C(=O)[C@H](CCCCC)N(C)C(=O)[C@@H](C)N(C)C(=O)[C@H](CCCCC)NC(=O)[C@@H](C)N(C)C1=O", "assay": "PAMPA, HPLC-UV", "setting": "500 µM, pH 7.4", "quantity": "log Papp", "value": "-5.57 ± 0.06"}
{"Compound": "CC(C)(C)C(=O)OCOP(=O)(OCOC(=O)C(C)(C)C)C1CCCN(O)C1=O (stereo not shown)", "tested on": "MOLT-4", "quantity": "TGI", "value": "2690 nM"}
{"Compound": "O=C1NC(=O)c2c1c1cc(F)c[n+]3c1c1c2c2cc(O)ccc2[n]1[Ru-4]312([N]=C=S)[S+]3CC[S+]1CC[S+]2CC3 (stereo not shown)", "tested on": "Dual specificity protein kinase CLK2 (CLK2, Homo sapiens, UniProt P49760)", "assay": "enzyme activity", "setting": "100 nM, human enzyme, together with: 10 µM ATP", "scale": "baseline: untreated", "quantity": "remaining activity", "value": "1%"}
{"Compound": "CC[C@H](C)[C@@H]1NC(=O)[C@@H](NC(=O)[C@H](CCCCN)NC(=O)[C@H](CC(C)C)NC(=O)[C@H](CC(C)C)NC(=O)CNC(C)=O)CN(C)C(=O)c2ccc(=O)n(c2)CC[C@@H](C(=O)N[C@@H](CC(C)C)C(N)=O)NC(=O)[C@H]([C@@H](C)O)NC(=O)[C@H](CCCCN)NC1=O", "assay": "circular dichroism", "system": "water", "setting": "66 µM", "quantity": "helicity", "value": "0%"}
{"Compound": "CCOc1ccccc1-n1c(CN2CCNCC2)nc2ccccc2c1=O", "system": "C57BL/6 mouse, male, plasma", "setting": "intraperitoneal, 3 mg/kg", "quantity": "half-life", "value": "2.11 h"}
{"Compound": "N#[11C]c1ccc(-c2csc(NN=C3CCCC3)n2)cc1", "system": "C57BL/6 mice, male, lung", "setting": "intravenous, 3 MBq, 60 min", "quantity": "radioactivity uptake", "value": "2.98 ± 0.45 %ID/g"}
{"Compound": "COc1cnc2cccc(N3CCc4c(cc(Cn5ccnc5)cc4-c4cn(C)nc4C(F)(F)F)C3=O)c2c1", "system": "BALB/c nude mice, MV4-11 xenograft", "setting": "intraperitoneal, 50 mg/kg, day 28", "quantity": "body weight", "value": "21 g and 20.1 g and 22.2 g and 21.3 g and 22.4 g"}
{"Compound": "CC(C)[C@@H]1NC(=O)CNC(=O)[C@H](CC(N)=O)NC(=O)[C@H](CCCNC(=N)N)NC(=O)[C@H](Cc2ccc(O)cc2)NC(=O)[C@H](C(C)C)NC(=O)[C@@H](NC(=O)[C@@H](NC(=O)[C@H](CC(N)=O)NC(=O)[C@H](Cc2c[nH]c3ccccc23)NC(=O)[C@H](C)NC(=O)[C@H](Cc2ccccc2)NC(=O)CNC(=O)[C@H](CCCCN)NC(=O)[C@H](Cc2ccccc2)NC(=O)[C@H](Cc2ccccc2)NC(=O)[C@H](CCCCN)NC(=O)OCC2c3ccccc3-c3ccccc32)C(C)C)CSSC[C@@H](C(=O)N[C@@H](Cc2c[nH]cn2)C(=O)N[C@@H](CCCNC(=N)N)C(=O)N[C@@H](CCCNC(=N)N)C(=O)N[C@@H](C)C(=O)N[C@@H](CC(N)=O)C(N)=O)NC(=O)[C@H](C(C)C)NC(=O)[C@H](CCCNC(=N)N)NC1=O", "system": "ICR mouse, blood", "setting": "intramammary, 10 mg/kg, day 5, 3 d dosing", "quantity": "creatinine", "value": "82.7 ± 3.65 µmol/L"}
{"Compound": "CC(C(=O)O)n1nc(Cn2cc3cc(OCC[18F])c(Cl)cc3n2)c2ccccc2c1=O (racemic)", "assay": "HPLC", "system": "nonhuman primate, plasma", "setting": "5 min post-injection", "scale": "baseline: plasma radioactivity", "quantity": "parent radiotracer", "value": "100%"}
{"Compound": "CS(C)(=O)=Nc1ccc(-c2ccc(-c3nc4cc(O[C@@H]5CO[C@H]6[C@@H]5OC[C@H]6O)[nH]c4cc3F)cc2)cc1", "tested on": "Epithelial discoidin domain-containing receptor 1 (DDR1, Homo sapiens, UniProt Q08345)", "assay": "enzyme activity, inhibitor", "setting": "10 µM", "quantity": "inhibition", "value": "-12%"}
{"Compound": "CC(C)[C@H](NC(=O)[C@@H](NC(=O)[C@H](CCCNC(=N)N)NC(=O)[C@H](CCCNC(=N)N)NC(=O)[C@H](CCCNC(=N)N)NC(=O)[C@H](CCC(N)=O)NC(=O)[C@H](CCCNC(=N)N)NC(=O)[C@H](CCCNC(=N)N)NC(=O)[C@H](CCCCN)NC(=O)[C@H](CCCCN)NC(=O)[C@H](CCCNC(=N)N)NC(=O)CN)[C@@H](C)O)C(=O)N[C@H](C(=O)N[C@@H](CO)C(=O)N1CCC[C@H]1C(=O)O)[C@@H](C)O", "system": "ICR mice, female, liver", "setting": "intranasal, 5 mg/kg daily, 4 weeks", "quantity": "organ weight", "value": "1.39 ± 0.351 g"}
{"Compound": "Cc1nc2cccc(OCC(C)(C)C(=O)NC(C)C)c2c(N)c1C(=O)[O-].[Na+]", "tested on": "Salmonella typhimurium", "system": "TA100", "setting": "0.13 mg per plate, with S9, plate incorporation", "quantity": "revertant colonies per plate", "value": "116 ± 10"}
{"Compound": "O=C(c1cc(Cc2n[nH]c(=O)c3ccccc23)ccc1F)N1CC(CNC2CC2)C1", "system": "female ICR mouse, plasma", "setting": "intravenous, 20 mg/kg", "quantity": "half-life", "value": "0.9 h"}
{"Compound": "CN1CCCCC1C(=O)NC(Cc1ccc(-c2ccccc2)cc1)B(O)O (stereo not shown)", "system": "Caco-2", "quantity": "Papp A→B", "value": "8.4 ×10⁻⁶ cm/s"}
{"Compound": "C=Cc1c(C)c2cc3nc(c(CC(=O)[O-])c4[n-]c(cc5nc(cc1[n-]2)C(C)=C5CC)c(C)c4C(=O)[O-])C(CCC(=O)[O-])C3C.[Cu+2].[Na+].[Na+].[Na+] (stereo not shown)", "system": "Wistar rat, male", "setting": "oral, 250 mg/kg daily, 28 days", "quantity": "serum alkaline phosphatase", "value": "164 ± 43.7 U/L"}
{"Compound": "CC(C)[C@H]1NC(=O)C[C@H]2/C=C/CCSSC[C@@H](NC1=O)C(=O)N[C@H](Cc1cccc3ccccc13)C(=O)NCC(=O)O2", "tested on": "Protein-tyrosine kinase 2-beta (PTK2B, Homo sapiens, UniProt Q14289)", "assay": "enzyme activity, inhibitor", "setting": "10 µM", "quantity": "inhibition", "value": "1.4%"}
{"Compound": "CC(C)(CCCC/C=C/CCCCCC(C)(C)C(=O)O)C(=O)O", "system": "beagle dog, both sexes", "setting": "oral, dose not given, 0.5 h", "quantity": "plasma concentration", "value": "35200 ng/mL"}
{"Compound": "CSCC[C@H](NC(=O)CNC(=O)[C@H](CCCCN)NC(=O)[C@H](CC(C)C)NC(=O)[C@@H]1CCCN1C(=O)[C@H](CO)NC(=O)[C@H](Cc1c[nH]cn1)NC(=O)[C@H](Cc1c[nH]c2ccccc12)NC(=O)[C@H](CCCNC(=N)N)NC(=O)[C@H](CC(C)C)NC(=O)[C@H](CCCNC(=N)N)NC(=O)[C@H](Cc1c[nH]c2ccccc12)NC(=O)[C@H](CS)NC(=O)CCCCCNC(=O)CN1CCN(CC(=O)O)CCN(CC(=O)O)CCN(CC(=O)O)CC1)C(=O)O [copper-64 labelled]", "assay": "ex vivo biodistribution", "system": "C57BL/6J mice bearing B16-F10 tumours, heart", "setting": "intravenous, 1.85 MBq, 30 h", "quantity": "tissue uptake", "value": "2.34 %ID/g"}
{"Compound": "CC(CCC(=O)NCC(=O)O)C1CCC2C3CCC4CC(OC5OC(C(=O)O)C(O)C(O)C5O)CCC4(C)C3CC(O)C12C (stereo not shown)", "system": "women, C/C genotype, plasma", "setting": "dose not given, geometric mean", "quantity": "glucuronide to parent ratio", "value": 2.72}
{"Compound": "CN1Cc2cc(Cl)ccc2-n2c(nnc2C2CCN(c3cccc(F)n3)CC2)C1", "assay": "mass spectrometry", "system": "male Sprague-Dawley rat, brain", "setting": "intravenous, 0.03 mg/kg, 5 min, single dose", "quantity": "concentration", "value": "7.23 ng/mL"}
{"Compound": "CSCC[C@H](N)C(=O)N[C@@H](C)C(=O)N[C@@H](Cc1c[nH]c2ccccc12)C(=O)N[C@@H](Cc1c[nH]cn1)C(=O)N[C@@H](CC(=O)O)C(=O)N[C@@H](CC(=O)O)C(=O)N[C@@H](CCC(=O)O)C(=O)N[C@@H](CCC(=O)O)C(=O)N[C@@H](Cc1ccccc1)C(=O)N[C@@H](C)C(=O)N[C@@H](CCCNC(=N)N)C(=O)N[C@@H](CCCNC(=N)N)C(=O)N[C@@H](CCCNC(=N)N)C(=O)N[C@@H](CCCNC(=N)N)C(=O)NCCCCCC(=O)NCCCCC(NC(=O)CCCCCNC(=O)[C@H](CCCNC(=N)N)NC(=O)[C@H](CCCNC(=N)N)NC(=O)[C@H](CCCNC(=N)N)NC(=O)[C@H](CCCNC(=N)N)NC(=O)[C@H](C)NC(=O)[C@H](Cc1ccccc1)NC(=O)[C@H](CCC(=O)O)NC(=O)[C@H](CCC(=O)O)NC(=O)[C@H](CC(=O)O)NC(=O)[C@H](CC(=O)O)NC(=O)[C@H](Cc1c[nH]cn1)NC(=O)[C@H](Cc1c[nH]c2ccccc12)NC(=O)[C@H](C)NC(=O)[C@@H](N)CCSC)C(=O)NCCCCC(NC(=O)C(CCCCNC(=O)CCCCCNC(=O)[C@H](CCCNC(=N)N)NC(=O)[C@H](CCCNC(=N)N)NC(=O)[C@H](CCCNC(=N)N)NC(=O)[C@H](CCCNC(=N)N)NC(=O)[C@H](C)NC(=O)[C@H](Cc1ccccc1)NC(=O)[C@H](CCC(=O)O)NC(=O)[C@H](CCC(=O)O)NC(=O)[C@H](CC(=O)O)NC(=O)[C@H](CC(=O)O)NC(=O)[C@H](Cc1c[nH]cn1)NC(=O)[C@H](Cc1c[nH]c2ccccc12)NC(=O)[C@H](C)NC(=O)[C@@H](N)CCSC)NC(=O)CCCCCNC(=O)[C@H](CCCNC(=N)N)NC(=O)[C@H](CCCNC(=N)N)NC(=O)[C@H](CCCNC(=N)N)NC(=O)[C@H](CCCNC(=N)N)NC(=O)[C@H](C)NC(=O)[C@H](Cc1ccccc1)NC(=O)[C@H](CCC(=O)O)NC(=O)[C@H](CCC(=O)O)NC(=O)[C@H](CC(=O)O)NC(=O)[C@H](CC(=O)O)NC(=O)[C@H](Cc1c[nH]cn1)NC(=O)[C@H](Cc1c[nH]c2ccccc12)NC(=O)[C@H](C)NC(=O)[C@@H](N)CCSC)C(N)=O (stereo partly shown)", "system": "C57BL/6 mouse female, pancreas", "setting": "dose not given, 3 h", "scale": "baseline: total", "quantity": "tissue distribution", "value": "0.93% and 0.99% and 1.51%"}
{"Compound": "CC[C@H](C)[C@H](NC(=O)[C@H](CCCCN)NC(=O)CNC(=O)[C@H](CC(C)C)NC(=O)[C@H](Cc1ccccc1)NC(=O)[C@H](CCCCN)NC(=O)[C@H](CO)NC(=O)[C@H](Cc1ccccc1)NC(=O)[C@H](Cc1c[nH]c2ccccc12)NC(=O)[C@H](CCC(N)=O)NC(=O)[C@@H](NC(=O)[C@H](Cc1ccccc1)NC(=O)CCCCCNC(=O)CN1CCN(CC(=O)O)CCN(CC(=O)O)CCN(CC(=O)O)CC1)C(C)C)C(=O)N[C@@H](CCC(=O)O)C(=O)N1CCC[C@H]1C(=O)N[C@H](CC(=O)O)C(=O)N[C@H](C(=O)N[C@@H](CO)C(=O)N[C@@H](CCC(N)=O)C(=O)N[C@H](C(=O)N[C@@H](CCC(N)=O)C(=O)N[C@@H](CC(=O)O)C(=O)N1CCC[C@H]1C(=O)N[C@@H](CC(N)=O)C(=O)N[C@@H](CC(=O)O)C(=O)N[C@@H](CCC(N)=O)C(=O)N[C@@H](Cc1ccc(O)cc1)C(=O)N[C@@H](CCC(=O)O)C(=O)N1CCC[C@H]1C(=O)N[C@@H](Cc1ccccc1)C(=O)O)C(C)C)C(C)C [copper-64 labelled]", "system": "C57BL/6 mice, male, MC-38 tumour-bearing, blood", "setting": "2 h, checkpoint inhibitor-treated", "quantity": "tissue uptake", "value": "0.39 ± 0.03 %ID/g"}
{"Compound": "COc1ccccc1-c1n[nH]c2nc(NC3CCN(C(=O)Cc4ccc(F)cc4F)CC3)ncc12", "assay": "bead binding, competition bead pull-down, refers to: LINJ.35.0070", "system": "Leishmania donovani axenic amastigote extract", "setting": "10 µM", "scale": "baseline: vehicle", "quantity": "relative abundance", "value": 0.77}
{"Compound": "C[C@H](O)[C@@H](NC(=O)[C@H]1CCCN1C(=O)[C@@H](CCCCN)NC(=O)[C@@H](CO)NC(=O)[C@@H](Cc1ccc(O)cc1)NC(=O)[C@@H](CC(N)=O)NC(=O)CCOCCOCCOCCNC(=O)CN1CCN(CC(=O)O)CCN(CC(=O)O)CCN(CC(=O)O)CC1)C(=O)N[C@H](CC(=O)O)C(=O)N[C@H](CCCNC(=N)N)C(=O)N[C@H](CCC(N)=O)C(=O)N[C@H](Cc1ccc(O)cc1)C(=O)N[C@H](Cc1c[nH]cn1)C(=O)N[C@H](Cc1ccccc1)C(N)=O [gallium-68 labelled]", "assay": "ex vivo gamma counting", "system": "BALB/c nude mouse, U-87 MG xenograft, intestine", "setting": "intravenous, 1.85 MBq, 30 min", "quantity": "tissue uptake", "value": "0.47 ± 0.35 %ID/g"}
{"Compound": "O=C1NC2(CC2)COc2ncc(F)cc2[C@H]2COCCN2c2ccn3ncc1c3n2", "system": "Sprague-Dawley rat, male, adrenals", "setting": "oral, 10 mg/kg/day, 4 weeks dosing, end of recovery", "quantity": "organ-to-brain weight ratio", "value": "2.92 ± 0.44%"}
